Experimental data pooled from the literature.
Every numbered part comes from another study and shows a few of its results, in no order. Positions count from the first letter of the parent shown.
Sequence of UniProt Q15569 (whole entry, looked up): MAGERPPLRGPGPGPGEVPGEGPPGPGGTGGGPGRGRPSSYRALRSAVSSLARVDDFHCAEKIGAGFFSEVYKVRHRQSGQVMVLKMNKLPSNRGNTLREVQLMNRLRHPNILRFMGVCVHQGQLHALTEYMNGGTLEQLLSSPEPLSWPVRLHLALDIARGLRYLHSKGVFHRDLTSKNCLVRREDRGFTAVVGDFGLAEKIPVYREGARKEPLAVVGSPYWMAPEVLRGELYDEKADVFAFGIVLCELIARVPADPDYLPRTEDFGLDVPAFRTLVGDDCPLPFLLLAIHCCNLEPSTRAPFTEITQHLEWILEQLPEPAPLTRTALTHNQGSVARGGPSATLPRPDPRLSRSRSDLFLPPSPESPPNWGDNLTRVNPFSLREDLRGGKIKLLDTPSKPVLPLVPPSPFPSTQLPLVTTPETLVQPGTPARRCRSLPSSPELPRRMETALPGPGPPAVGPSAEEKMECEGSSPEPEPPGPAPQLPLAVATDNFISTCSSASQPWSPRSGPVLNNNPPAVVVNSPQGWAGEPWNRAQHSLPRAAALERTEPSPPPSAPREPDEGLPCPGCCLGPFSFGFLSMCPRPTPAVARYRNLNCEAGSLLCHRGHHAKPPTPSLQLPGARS
Sequence of UniProt Q12852 (whole entry, looked up): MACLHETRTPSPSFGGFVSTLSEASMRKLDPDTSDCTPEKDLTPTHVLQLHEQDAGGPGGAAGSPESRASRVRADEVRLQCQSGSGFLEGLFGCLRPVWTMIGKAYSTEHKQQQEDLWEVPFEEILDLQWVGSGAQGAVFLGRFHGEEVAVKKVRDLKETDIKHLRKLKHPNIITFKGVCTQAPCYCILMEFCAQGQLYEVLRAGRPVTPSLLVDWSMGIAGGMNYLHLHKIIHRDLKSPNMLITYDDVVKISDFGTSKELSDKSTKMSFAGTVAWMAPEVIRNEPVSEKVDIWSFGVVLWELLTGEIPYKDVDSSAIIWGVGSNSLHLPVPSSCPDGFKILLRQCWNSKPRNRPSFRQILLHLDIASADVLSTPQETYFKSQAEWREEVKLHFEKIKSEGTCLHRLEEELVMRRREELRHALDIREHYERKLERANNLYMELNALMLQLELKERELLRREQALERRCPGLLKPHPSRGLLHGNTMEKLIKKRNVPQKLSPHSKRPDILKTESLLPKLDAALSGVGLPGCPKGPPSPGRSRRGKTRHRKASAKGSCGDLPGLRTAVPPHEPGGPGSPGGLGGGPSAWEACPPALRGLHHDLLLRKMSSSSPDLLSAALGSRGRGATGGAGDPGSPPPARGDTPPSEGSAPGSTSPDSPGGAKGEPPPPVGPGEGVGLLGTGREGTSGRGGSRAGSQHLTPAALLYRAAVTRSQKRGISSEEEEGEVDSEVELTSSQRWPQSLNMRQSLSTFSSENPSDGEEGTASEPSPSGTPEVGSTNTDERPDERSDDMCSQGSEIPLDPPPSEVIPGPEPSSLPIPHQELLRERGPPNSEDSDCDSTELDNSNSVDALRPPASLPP
Sequence of UniProt Q8NI60 (whole entry, looked up): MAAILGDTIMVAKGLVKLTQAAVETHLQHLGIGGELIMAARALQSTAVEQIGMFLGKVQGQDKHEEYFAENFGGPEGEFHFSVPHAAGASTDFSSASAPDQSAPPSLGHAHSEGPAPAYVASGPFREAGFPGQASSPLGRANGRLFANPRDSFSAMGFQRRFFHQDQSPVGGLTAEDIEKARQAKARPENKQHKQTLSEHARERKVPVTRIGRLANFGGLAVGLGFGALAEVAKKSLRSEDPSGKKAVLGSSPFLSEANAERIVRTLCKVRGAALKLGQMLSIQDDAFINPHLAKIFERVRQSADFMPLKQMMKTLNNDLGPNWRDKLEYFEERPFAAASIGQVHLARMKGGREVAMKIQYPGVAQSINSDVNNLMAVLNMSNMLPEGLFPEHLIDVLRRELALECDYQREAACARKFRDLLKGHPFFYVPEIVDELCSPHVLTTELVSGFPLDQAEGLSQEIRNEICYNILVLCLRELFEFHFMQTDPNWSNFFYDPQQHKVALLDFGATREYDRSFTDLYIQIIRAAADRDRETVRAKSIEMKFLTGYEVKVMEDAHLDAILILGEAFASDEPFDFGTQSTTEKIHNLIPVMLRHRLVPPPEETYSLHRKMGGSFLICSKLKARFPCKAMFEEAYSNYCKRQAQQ
Sequence of UniProt Q9Y2U5 (whole entry, looked up): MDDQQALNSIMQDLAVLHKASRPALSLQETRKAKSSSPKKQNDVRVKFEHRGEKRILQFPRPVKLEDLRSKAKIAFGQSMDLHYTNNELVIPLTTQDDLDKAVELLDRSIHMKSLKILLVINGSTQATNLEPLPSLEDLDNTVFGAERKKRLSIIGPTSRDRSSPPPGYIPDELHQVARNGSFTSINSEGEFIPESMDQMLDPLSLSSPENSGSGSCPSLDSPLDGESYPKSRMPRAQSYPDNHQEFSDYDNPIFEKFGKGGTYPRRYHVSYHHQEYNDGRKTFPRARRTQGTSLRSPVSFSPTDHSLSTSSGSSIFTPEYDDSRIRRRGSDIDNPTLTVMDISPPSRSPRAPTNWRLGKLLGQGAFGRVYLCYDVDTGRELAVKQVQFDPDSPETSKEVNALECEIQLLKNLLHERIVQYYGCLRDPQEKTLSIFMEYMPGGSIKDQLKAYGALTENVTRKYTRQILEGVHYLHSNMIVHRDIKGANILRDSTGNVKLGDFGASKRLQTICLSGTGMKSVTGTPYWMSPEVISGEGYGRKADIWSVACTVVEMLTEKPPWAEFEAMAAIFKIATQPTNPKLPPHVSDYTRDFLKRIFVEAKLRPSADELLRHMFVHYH
Sequence of UniProt Q7KZI7 (whole entry, looked up): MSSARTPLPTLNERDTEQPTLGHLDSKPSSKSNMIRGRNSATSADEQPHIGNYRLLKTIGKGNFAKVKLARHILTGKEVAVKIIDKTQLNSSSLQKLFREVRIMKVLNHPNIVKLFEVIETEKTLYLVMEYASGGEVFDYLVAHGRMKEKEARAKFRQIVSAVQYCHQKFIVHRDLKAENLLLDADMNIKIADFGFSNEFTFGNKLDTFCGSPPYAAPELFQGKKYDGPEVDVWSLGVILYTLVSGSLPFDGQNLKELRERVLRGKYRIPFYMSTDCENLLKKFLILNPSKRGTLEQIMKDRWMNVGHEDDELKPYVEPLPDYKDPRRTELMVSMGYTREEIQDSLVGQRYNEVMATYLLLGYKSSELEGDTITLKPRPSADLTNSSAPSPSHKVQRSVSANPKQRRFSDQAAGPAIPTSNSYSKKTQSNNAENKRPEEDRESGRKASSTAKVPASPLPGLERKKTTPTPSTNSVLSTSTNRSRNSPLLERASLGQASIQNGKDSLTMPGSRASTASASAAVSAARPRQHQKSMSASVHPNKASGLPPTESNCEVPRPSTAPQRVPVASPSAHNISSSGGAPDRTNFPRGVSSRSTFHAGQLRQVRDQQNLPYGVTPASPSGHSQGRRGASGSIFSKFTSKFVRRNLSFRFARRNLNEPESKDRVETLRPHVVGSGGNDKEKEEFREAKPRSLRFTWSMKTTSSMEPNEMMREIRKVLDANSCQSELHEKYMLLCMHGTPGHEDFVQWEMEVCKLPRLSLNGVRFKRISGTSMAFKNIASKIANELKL
Sequence of UniProt Q13555 (whole entry, looked up): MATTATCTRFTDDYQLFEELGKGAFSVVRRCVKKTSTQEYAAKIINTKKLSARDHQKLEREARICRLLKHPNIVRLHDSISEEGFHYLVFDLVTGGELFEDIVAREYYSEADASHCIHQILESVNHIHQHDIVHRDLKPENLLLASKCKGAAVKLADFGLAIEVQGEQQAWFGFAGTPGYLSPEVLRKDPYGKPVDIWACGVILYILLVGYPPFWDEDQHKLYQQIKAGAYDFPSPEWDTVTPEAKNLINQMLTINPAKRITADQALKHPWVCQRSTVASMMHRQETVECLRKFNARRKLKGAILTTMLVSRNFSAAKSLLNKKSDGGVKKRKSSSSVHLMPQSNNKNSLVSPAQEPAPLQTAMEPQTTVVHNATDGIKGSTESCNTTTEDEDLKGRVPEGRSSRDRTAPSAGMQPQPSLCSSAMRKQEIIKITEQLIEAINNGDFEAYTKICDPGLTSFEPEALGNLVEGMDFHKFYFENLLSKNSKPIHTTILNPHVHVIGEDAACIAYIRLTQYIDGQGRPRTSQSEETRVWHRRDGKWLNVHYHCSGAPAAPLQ
Sequence of UniProt P27361 (whole entry, looked up): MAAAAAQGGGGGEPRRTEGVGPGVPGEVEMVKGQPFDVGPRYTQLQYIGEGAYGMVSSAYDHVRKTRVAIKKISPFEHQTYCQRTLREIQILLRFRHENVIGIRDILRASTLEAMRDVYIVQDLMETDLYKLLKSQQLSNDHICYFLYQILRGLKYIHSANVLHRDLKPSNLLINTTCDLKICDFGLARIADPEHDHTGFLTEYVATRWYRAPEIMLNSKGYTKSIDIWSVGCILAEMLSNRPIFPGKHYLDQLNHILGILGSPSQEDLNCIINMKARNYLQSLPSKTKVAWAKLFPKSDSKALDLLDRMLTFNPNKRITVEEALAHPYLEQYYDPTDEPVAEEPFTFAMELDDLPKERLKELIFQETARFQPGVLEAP

Set 1 — method: RNA Bind-n-Seq; form: RNA; matrix: in vitro; concentration: not given; notes: 4-mer, random 30-nt RNA, single round; with: RocA, ADP, phosphate; baseline: input library; reading: higher = stronger binding; quantity: 4-mer enrichment
Target: Eukaryotic initiation factor 4A-I (EIF4A1, Homo sapiens, UniProt P60842, residues 1-406, full length assumed)
Sequence of UniProt P60842 (whole entry, looked up): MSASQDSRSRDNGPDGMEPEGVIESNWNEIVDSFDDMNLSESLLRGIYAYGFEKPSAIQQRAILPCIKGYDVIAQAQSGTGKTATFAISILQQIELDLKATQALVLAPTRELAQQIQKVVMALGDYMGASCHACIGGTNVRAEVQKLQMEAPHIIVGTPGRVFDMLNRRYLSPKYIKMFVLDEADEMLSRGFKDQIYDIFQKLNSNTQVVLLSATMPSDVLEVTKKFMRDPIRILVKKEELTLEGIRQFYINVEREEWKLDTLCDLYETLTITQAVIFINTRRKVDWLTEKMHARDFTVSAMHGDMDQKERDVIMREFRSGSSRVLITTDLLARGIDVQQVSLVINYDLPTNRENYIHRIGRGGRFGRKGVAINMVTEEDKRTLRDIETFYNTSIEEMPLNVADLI
Oligonucleotide = GACU; result = 0.689 fold
Oligonucleotide = AUCU; result = 0.606 fold
Oligonucleotide = CGUG; result = 0.869 fold
Oligonucleotide = AGGC; result = 0.863 fold
Oligonucleotide = GUAU; result = 1.07 fold
Oligonucleotide = GUCU; result = 0.702 fold
Oligonucleotide = AUAC; result = 0.698 fold
Oligonucleotide = AAUG; result = 1.19 fold

Set 2 — target: ATF7, bZIP domain (human); method: DHFR protein complementation; matrix: yeast; baseline: wild-type JUN-FOS pair; reading: higher = stronger binding; quantity: binding fitness
Notes: single substitutions, most at no-binding floor
Starting sequence: JUN, bZIP domain (human); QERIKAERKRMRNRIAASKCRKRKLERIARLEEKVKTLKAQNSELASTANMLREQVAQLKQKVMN; partner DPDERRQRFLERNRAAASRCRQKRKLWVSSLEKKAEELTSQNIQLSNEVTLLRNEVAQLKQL
Variant = S43T; result = -0.749 natural log
Variant = L52A; result = -1.46 natural log
Variant = Q55L; result = -0.955 natural log
Variant = V56K; result = -1.39 natural log
Variant = A40L; result = -1.04 natural log
Variant = Q55I; result = -1.07 natural log
Variant = S47I; result = -0.988 natural log
Variant = L31N; result = -1.46 natural log

Set 3 — read-out: cell-free assay; method: competition with immobilised ligand; concentration: 0.1 µM; quantity: remaining binding
SMILES: CNC(=O)c1ccc(Nc2ncc(C(F)(F)F)c(NCc3nccnc3N(C)S(C)(=O)=O)n2)cc1
target = MAP3K2 (Homo sapiens, UniProt Q9Y2U5); result = 65%
target = COQ8A (Homo sapiens, UniProt Q8NI60); result = 98%
target = MAP3K12 (Homo sapiens, UniProt Q12852); result = 83%
target = TESK1 (Homo sapiens, UniProt Q15569); result = 96%
target = MARK2 (Homo sapiens, UniProt Q7KZI7); result = 66%
target = MAPK3 (Homo sapiens, UniProt P27361); result = 86%
target = MET (Homo sapiens, UniProt P08581, M1250T); result = 63%
target = EGFR (Homo sapiens, UniProt P00533, A750P/del747-749); result = 97%
target = CAMK2G (Homo sapiens, UniProt Q13555); result = 79%
target = Tyrosine-protein kinase ABL1, phosphorylated (ABL1, Homo sapiens, UniProt P00519); result = 100%
target = MAPK4 (Homo sapiens, UniProt P31152); result = 87%
target = FGFR1 (Homo sapiens, UniProt P11362); result = 89%
target = MAP3K4 (Homo sapiens, UniProt Q9Y6R4); result = 100%

Set 4 — species: mouse; matrix: microsomes or S9; concentration: 2 µM; time: 0.5 h; quantity: remaining compound
SMILES = O=c1c2ccccc2nc(NCCCCc2ccccc2)n1-c1ccccc1; result = < 1%
SMILES = O=C(NCCc1c[nH]c2ccccc12)c1c(OCC2CC2)cc(=O)n2c1CCOCC2; result = 22.9%
SMILES = CCOC(=O)Cn1c(=O)n(C2CCCCC2)c(=O)c2c3c(sc21)COC(C)(C)C3; result = 1.13%

Repeated from above (set 3):
target = TESK1 (Homo sapiens, UniProt Q15569); result = 96%
target = COQ8A (Homo sapiens, UniProt Q8NI60); result = 98%
target = MAPK4 (Homo sapiens, UniProt P31152); result = 87%
target = CAMK2G (Homo sapiens, UniProt Q13555); result = 79%
